# Results from different studies.
# Parts stem from different laboratories: compare values within a part only.
# UniProt P42336, sequence (whole entry, unmodified, looked up): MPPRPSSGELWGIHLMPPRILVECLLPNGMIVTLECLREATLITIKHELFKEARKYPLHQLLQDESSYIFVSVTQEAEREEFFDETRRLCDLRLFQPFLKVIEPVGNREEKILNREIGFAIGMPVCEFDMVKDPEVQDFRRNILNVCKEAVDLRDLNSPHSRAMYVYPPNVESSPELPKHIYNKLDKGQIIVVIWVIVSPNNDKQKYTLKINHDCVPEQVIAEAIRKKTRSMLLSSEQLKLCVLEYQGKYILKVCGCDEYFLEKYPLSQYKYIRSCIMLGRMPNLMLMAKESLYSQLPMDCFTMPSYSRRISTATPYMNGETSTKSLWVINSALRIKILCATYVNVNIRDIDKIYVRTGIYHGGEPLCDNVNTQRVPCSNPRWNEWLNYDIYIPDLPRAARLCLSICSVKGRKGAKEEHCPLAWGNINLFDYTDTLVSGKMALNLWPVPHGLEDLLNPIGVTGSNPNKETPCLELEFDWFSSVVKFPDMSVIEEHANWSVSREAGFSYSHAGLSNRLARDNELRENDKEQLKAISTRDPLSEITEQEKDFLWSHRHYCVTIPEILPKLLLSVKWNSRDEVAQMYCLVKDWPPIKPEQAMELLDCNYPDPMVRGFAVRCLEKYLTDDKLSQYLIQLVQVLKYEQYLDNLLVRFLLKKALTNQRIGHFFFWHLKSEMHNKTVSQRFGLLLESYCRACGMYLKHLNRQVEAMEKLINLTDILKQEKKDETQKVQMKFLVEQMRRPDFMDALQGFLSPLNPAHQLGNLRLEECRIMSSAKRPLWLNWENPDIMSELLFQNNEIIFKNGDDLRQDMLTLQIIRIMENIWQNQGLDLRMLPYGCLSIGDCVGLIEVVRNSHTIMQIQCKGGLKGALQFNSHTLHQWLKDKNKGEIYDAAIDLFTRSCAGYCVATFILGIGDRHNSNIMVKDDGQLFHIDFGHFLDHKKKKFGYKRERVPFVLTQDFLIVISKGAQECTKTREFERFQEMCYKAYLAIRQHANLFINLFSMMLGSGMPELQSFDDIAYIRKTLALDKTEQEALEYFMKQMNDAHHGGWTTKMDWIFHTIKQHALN
# UniProt P22607, sequence (whole entry, looked up): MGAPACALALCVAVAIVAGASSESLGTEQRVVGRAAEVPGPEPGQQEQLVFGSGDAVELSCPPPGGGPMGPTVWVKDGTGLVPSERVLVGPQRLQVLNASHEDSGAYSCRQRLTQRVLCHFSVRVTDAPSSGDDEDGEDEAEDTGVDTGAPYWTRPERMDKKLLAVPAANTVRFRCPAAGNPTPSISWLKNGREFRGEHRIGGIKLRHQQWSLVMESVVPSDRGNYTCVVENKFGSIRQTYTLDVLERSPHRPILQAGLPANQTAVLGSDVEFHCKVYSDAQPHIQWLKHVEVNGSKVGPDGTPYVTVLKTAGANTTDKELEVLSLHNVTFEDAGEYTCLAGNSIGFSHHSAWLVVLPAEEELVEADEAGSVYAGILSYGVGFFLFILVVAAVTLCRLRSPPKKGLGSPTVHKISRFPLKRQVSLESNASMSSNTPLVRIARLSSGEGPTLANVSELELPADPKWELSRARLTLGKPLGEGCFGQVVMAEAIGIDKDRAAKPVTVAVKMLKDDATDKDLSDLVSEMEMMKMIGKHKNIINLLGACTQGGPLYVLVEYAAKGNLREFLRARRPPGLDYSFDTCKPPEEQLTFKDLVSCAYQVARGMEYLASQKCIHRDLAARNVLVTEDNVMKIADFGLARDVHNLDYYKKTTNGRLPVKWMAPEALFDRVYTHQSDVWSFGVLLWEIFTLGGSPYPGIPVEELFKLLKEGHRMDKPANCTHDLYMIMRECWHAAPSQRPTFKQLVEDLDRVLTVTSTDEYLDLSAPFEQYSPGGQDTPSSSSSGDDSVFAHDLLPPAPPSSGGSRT
# UniProt Q9BQI3, sequence (whole entry, looked up): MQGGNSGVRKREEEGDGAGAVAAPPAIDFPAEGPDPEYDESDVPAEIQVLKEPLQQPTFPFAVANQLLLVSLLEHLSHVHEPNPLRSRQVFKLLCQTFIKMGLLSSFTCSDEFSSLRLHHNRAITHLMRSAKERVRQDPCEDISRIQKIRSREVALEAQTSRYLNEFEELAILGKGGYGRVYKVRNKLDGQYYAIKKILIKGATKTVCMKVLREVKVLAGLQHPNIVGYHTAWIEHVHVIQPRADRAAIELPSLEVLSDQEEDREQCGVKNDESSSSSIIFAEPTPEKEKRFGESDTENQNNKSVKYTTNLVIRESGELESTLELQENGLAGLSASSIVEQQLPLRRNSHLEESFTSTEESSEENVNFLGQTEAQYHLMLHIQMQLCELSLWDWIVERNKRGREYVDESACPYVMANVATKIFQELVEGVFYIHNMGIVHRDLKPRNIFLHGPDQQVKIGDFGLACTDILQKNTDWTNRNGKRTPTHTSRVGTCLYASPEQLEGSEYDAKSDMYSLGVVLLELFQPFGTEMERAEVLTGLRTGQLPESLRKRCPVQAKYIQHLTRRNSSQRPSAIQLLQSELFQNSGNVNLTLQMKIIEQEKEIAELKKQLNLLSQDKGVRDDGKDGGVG
# UniProt Q9BX84, sequence (whole entry, looked up): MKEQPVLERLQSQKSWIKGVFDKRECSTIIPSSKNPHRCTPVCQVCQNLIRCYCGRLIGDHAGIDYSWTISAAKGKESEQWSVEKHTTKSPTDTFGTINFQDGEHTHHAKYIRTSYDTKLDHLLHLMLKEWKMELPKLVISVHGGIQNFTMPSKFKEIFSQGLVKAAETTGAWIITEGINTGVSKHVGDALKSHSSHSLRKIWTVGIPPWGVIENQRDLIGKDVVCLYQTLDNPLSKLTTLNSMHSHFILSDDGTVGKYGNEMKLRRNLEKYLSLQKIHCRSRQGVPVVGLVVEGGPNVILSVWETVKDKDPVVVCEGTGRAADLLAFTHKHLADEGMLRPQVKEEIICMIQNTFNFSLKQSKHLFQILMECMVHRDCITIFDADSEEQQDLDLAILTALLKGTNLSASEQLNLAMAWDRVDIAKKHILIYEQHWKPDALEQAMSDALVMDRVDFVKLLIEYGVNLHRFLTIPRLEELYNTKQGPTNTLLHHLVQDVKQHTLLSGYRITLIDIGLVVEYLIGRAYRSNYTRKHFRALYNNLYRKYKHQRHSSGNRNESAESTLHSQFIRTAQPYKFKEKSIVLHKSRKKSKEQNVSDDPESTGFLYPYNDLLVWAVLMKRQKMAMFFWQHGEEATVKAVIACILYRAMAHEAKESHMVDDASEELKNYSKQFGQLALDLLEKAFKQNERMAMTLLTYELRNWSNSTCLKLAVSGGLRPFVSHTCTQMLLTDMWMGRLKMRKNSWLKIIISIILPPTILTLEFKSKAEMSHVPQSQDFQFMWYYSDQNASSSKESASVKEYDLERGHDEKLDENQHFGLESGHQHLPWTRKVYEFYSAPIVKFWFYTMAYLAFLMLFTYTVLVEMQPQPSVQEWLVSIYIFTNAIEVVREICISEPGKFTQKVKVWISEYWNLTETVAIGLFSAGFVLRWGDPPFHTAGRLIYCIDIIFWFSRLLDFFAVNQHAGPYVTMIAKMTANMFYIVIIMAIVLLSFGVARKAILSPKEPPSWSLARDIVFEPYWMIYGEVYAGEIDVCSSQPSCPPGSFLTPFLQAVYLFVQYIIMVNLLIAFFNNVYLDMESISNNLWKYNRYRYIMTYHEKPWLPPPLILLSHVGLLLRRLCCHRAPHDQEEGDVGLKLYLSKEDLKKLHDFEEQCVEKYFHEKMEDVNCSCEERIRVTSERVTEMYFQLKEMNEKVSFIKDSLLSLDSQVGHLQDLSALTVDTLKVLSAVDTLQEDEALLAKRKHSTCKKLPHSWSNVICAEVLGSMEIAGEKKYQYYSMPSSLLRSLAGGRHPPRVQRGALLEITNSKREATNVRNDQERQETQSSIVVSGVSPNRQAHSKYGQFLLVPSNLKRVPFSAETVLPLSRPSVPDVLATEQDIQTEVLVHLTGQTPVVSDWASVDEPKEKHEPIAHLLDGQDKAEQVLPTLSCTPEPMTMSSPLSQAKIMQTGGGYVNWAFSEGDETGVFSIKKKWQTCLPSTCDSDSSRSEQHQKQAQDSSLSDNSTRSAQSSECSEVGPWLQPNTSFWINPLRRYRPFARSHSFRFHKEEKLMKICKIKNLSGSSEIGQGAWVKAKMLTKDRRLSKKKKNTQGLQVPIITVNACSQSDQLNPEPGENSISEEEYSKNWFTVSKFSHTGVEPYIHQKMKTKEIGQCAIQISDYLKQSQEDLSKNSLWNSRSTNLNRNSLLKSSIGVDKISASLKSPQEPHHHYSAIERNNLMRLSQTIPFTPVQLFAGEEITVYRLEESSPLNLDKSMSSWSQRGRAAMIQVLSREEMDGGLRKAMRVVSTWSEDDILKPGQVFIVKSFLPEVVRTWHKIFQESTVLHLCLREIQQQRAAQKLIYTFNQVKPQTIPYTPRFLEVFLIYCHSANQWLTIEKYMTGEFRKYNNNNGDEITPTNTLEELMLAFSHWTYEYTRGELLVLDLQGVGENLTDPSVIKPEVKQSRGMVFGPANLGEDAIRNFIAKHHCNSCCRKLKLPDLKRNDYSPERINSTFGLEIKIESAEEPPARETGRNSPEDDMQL

# Set 1
# Cell line: A-375
# Tested at: 100 µM
# Time: 18 h
SMILES,viability
NS(=O)(=O)Cc1noc2ccccc12,114%
C[C@H]1COc2c(N3CCN(C)CC3)c(F)cc3c(=O)c(C(=O)O)cn1c23,74.7%
CCOC(=O)c1ncn2c1CN(C)C(=O)c1cc(F)ccc1-2,93.7%
COc1cc([C@@H]2c3cc4c(cc3[C@@H](O[C@@H]3O[C@@H]5CO[C@@H](C)O[C@H]5[C@H](O)[C@H]3O)[C@H]3COC(=O)[C@H]23)OCO4)cc(OC)c1O,81.5%
O=c1cc[nH]c(=O)[nH]1,107%

# Set 2
# Organism: Sarcocystis neurona
# Observed: parasite activity
# Tested at: 10 µM
# Time: 96 h
SMILES,activity class
Clc1ccc(COC(Cn2ccnc2)c2ccc(Cl)cc2Cl)c(Cl)c1 (stereo not drawn),inactive
CCc1cccc2c3c([nH]c12)C(CC)(CC(=O)O)OCC3 (stereo not drawn),inactive
CC(=O)NS(=O)(=O)c1ccc(N)cc1,inactive
S=c1[nH]cnc2nc[nH]c12,inactive
CCC(=O)OCC(=O)[C@@]1(OC(=O)CC)[C@@H](C)C[C@H]2[C@@H]3CCC4=CC(=O)C=C[C@]4(C)[C@@]3(Cl)[C@@H](O)C[C@@]21C,inactive
CN1CC(=O)N2[C@H](c3ccc4c(c3)OCO4)c3[nH]c4ccccc4c3C[C@@H]2C1=O,inactive
CNS(=O)(=O)Cc1ccc2[nH]cc(CCN(C)C)c2c1,inactive

# Set 3
# Species: human
# Sample: microsomes or S9
# Tested at: 2 µM
# Time: 0.5 h
SMILES,remaining compound [%]
COCCN(C)C(=O)Cn1c(-c2ccccc2)nn(-c2cccc(C)c2)c1=O,54.4
Oc1cc(F)cc(CNC2CCCN(c3cc(N4CCOCC4)ncn3)C2)c1 (stereo not drawn),18.5
COc1ccc(C)cc1NS(=O)(=O)c1cn(C)nc1C,86.2
COc1cc(CN2CCC(NC(=O)NC3CCCCC3)CC2)cc(OC)c1OC,92.2
Cc1c(C)n(CCCN(C)C)c2ncn(CC(C)C)c(=N)c12,98.8
NC1(c2ccccc2)C(=O)Nc2ccccc2C1=O (stereo not drawn),96.7
CS(=O)(=O)c1nc2c(n1-c1ccccc1)C(=O)C(c1ccccc1)S(=O)(=O)N2Cc1ccccc1 (stereo not drawn),1.92
CCN1C=CC(=C(C=C2C=CC(=O)C=C2)CS(=O)(=O)O)C=C1,66.3

# Set 4
# SMILES: Cc1cc(-n2nc(Cc3cc(F)cc(C(F)(F)F)c3)nc2C)ccc1C(N)=O
# Tested at: 1 µM
target,observed,method,remaining binding
"PIK3CA (Homo sapiens, UniProt P42336, M1043I)",cell-free assay,competition with immobilised ligand,95%
"PRKCE (Homo sapiens, UniProt Q02156)",cell-free assay,competition with immobilised ligand,100%
"PIK3CA (Homo sapiens, UniProt P42336, I800L)",cell-free assay,competition with immobilised ligand,70%
"CDC42BPG (Homo sapiens, UniProt Q6DT37)",,competition binding,100%
"MYLK3 (Homo sapiens, UniProt Q32MK0)",cell-free assay,competition with immobilised ligand,92%
"PIK3C2G (Homo sapiens, UniProt O75747)",cell-free assay,competition with immobilised ligand,100%
"IKBKB (Homo sapiens, UniProt O14920)",cell-free assay,competition with immobilised ligand,92%
"MUSK (Homo sapiens, UniProt O15146)",cell-free assay,competition with immobilised ligand,100%
"FGFR3 (Homo sapiens, UniProt P22607)",cell-free assay,competition with immobilised ligand,100%
"MAK (Homo sapiens, UniProt P20794)",cell-free assay,competition with immobilised ligand,100%
"EIF2AK1 (Homo sapiens, UniProt Q9BQI3)",cell-free assay,competition with immobilised ligand,100%
"ULK2 (Homo sapiens, UniProt Q8IYT8)",cell-free assay,competition with immobilised ligand,100%
"TRPM6 (Homo sapiens, UniProt Q9BX84)",cell-free assay,competition with immobilised ligand,100%

# Excerpt of the above (set 2):
SMILES,activity class
CCC(=O)OCC(=O)[C@@]1(OC(=O)CC)[C@@H](C)C[C@H]2[C@@H]3CCC4=CC(=O)C=C[C@]4(C)[C@@]3(Cl)[C@@H](O)C[C@@]21C,inactive
CC(=O)NS(=O)(=O)c1ccc(N)cc1,inactive
CCc1cccc2c3c([nH]c12)C(CC)(CC(=O)O)OCC3 (stereo not drawn),inactive
